Earlier results, collected from citations in different studies.
Compare with care: the assays were run in different laboratories.
Sequence of UniProt Q86UX6 (whole entry, looked up): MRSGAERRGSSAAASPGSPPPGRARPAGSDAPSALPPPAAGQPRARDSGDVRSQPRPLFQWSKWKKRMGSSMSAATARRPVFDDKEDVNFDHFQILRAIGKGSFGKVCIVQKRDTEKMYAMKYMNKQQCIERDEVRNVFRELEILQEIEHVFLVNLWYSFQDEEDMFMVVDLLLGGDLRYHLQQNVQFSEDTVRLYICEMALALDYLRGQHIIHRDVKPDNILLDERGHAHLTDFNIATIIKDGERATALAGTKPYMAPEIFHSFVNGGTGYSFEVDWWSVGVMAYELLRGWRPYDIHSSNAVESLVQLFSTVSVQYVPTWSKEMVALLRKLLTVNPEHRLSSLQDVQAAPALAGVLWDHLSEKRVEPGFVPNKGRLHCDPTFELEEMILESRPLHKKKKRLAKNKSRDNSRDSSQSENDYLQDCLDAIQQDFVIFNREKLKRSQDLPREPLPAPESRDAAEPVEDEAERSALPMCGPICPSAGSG

Compound	tested on	test	system	conditions	scale	measurement	value
CC(C)(CO)c1cc2cc(NC(=O)C3(c4ccc5c(c4)OC(F)(F)O5)CC3)c(F)cc2n1C[C@@H](O)CO			human			gut wall elimination, fraction escaping	0.95
C[C@H](N[C@@H](CCc1ccccc1)C(=O)O)C(=O)N1CCC[C@H]1C(=O)O			human			fraction absorbed	18%
C=CC[C@@H]1/C=C(\C)C[C@H](C)C[C@H](OC)[C@H]2O[C@@](O)(C(=O)C(=O)N3CCCC[C@H]3C(=O)O[C@H](/C(C)=C/[C@@H]3CC[C@@H](O)[C@H](OC)C3)[C@H](C)[C@@H](O)CC1=O)[C@H](C)C[C@@H]2OC		refers to: CYP3A5	human			fraction metabolized	0.67
N#Cc1ccc(C(c2ccc(C#N)cc2)n2cncn2)cc1			human, plasma	estimated		fraction unbound	0.6
C[C@@H]1[C@H](O)[C@@H](C)/C=C/C=C/C=C/C=C/C=C/C=C/C=C/[C@H](O[C@@H]2O[C@H](C)[C@@H](O)[C@H](N)[C@@H]2O)C[C@@H]2O[C@](O)(C[C@@H](O)C[C@@H](O)[C@H](O)CC[C@@H](O)C[C@@H](O)CC(=O)O[C@H]1C)C[C@H](O)[C@H]2C(=O)O			human			fraction excreted in faeces	43%
CO[C@H]1C[C@@H]2CC[C@@H](C)[C@@](O)(O2)C(=O)C(=O)N2CCCC[C@H]2C(=O)O[C@H]([C@H](C)C[C@@H]2CC[C@@H](O)[C@H](OC)C2)CC(=O)[C@H](C)/C=C(\C)[C@@H](O)[C@@H](OC)C(=O)[C@H](C)C[C@H](C)/C=C/C=C/C=C/1C			human			fraction unbound in plasma	0.08
Cc1ncc([N+](=O)[O-])n1CCO			human	added: radiolabelled compound		fraction excreted in faeces	6 to 15%
Cc1nn(C)cc1S(=O)(=O)NC(=O)c1ccc(-n2ccc(OCC(C)(C)C(F)(F)F)n2)nc1N1C[C@@H](C)CC1(C)C			human, plasma			fraction unbound	0.00704
COC(=O)[C@H]1[C@H]2C[C@@H]3c4[nH]c5cc(OC)ccc5c4CCN3C[C@H]2C[C@@H](OC(=O)c2cc(OC)c(OC)c(OC)c2)[C@@H]1OC			human			fraction absorbed	50%
Cc1ccc(NC(=O)c2ccc(CN3CCN(C)CC3)cc2)cc1Nc1nc(-c2cccnc2)cs1			human			fraction absorbed	0.8
COc1ccccc1OCCNCC(O)COc1cccc2[nH]c3ccccc3c12 (centres unmarked)			human			fraction absorbed	80%
Nc1cc(C(F)(F)F)c(-c2nc(N3CCOCC3)nc(N3CCOCC3)n2)cn1	Serine/threonine-protein kinase 32C (STK32C, Homo sapiens, UniProt Q86UX6)	enzyme activity		10 µM	relative to: untreated	remaining activity	79%
CC(C)c1nc(N(C)S(C)(=O)=O)nc(-c2ccc(F)cc2)c1/C=C/[C@@H](O)C[C@@H](O)CC(=O)O			human			fraction absorbed	50%
CN1CCC(COc2cnc(-c3cccc(Cn4nc(-c5cccc(C#N)c5)ccc4=O)c3)nc2)CC1			human			fraction absorbed	~85%
